Published values collected from several papers.
Each numbered part is a random draw from the data of one study; scales do not carry over between parts. Substitutions count along the parent as printed.

Series 1 — method: RNA Bind-n-Seq; molecule type: RNA; sample: in vitro; concentration: 200 nM; notes: whole 134-nt RNA, ends assumed; with: 150 mM KCl; relative to: input library; reading: higher = stronger binding
Target: Fragile X messenger ribonucleoprotein 1, C-terminal low-complexity region (Fmr1, Mus musculus, UniProt P35922)
| Sequence | log2 enrichment |
| --- | --- |
| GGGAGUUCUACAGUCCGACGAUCCAAGUCCUGUGCUACACAUCGUAUGUACCGAAUCGGAAAGGGGAAAGGGGAAAGGAAAGUAUUAUGUUACGCCGUUCGGAUCUGCACUUCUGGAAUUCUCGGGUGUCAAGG | -0.178 |
| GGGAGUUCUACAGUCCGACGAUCAAGUCCUGUGCUACACAUCGUAUGUACCGAAUCGGGAAAAGGGAAAAGGGAAAAGGAAAGUAUUAUGUUACGCCGUUCGGAUCUGCACUUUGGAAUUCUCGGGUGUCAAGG | -0.564 |
| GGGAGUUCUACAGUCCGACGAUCAAGUCCUGUGCUACACAUCGUAUGUACCGAAUCAAAUUUUUAAACCCAAACCCAAAAAAGUAUUAUGUUACGCCGUUCGGAUCUGCACUUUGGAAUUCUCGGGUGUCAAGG | -0.266 |
| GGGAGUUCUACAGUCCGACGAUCUGUGUUGUGCUCAUUACCAGUGCAGCGACUGCCGUCCCAGGGUGACUCUGAGUUGUCCUUUAUCGUGAGCUAGCAAUGGCUAGCGAAGACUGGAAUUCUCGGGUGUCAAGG | -1.66 |
| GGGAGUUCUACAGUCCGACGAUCUAACUUUAGAUGAGGAUCUGAUGGAUAUGGCAGUGGACGUGGAUUUGGGGAUGGCUAUAAUGGGUAUGGAGGAGGACCUGGAGGUGGCAAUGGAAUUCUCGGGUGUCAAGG | 0.204 |
| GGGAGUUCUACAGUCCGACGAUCCUCAAGUCCUGUGCUACACAUCGUAUGUACCGAAUCGGAGGUGGAAAAAAAGGAAAGUAUUAUGUUACGCCGUUCGGAUCUGCACUUCCAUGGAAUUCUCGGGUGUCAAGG | -0.515 |
| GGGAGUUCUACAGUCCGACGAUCUGGGAGGUGGAUUUUGUUUAUUUUUUUAGCUCAUUUCCAGGGGUGGGUAUUUUUUUUUAAUAUGUGUCAUGAAUAAAGUUGUUUUUGAAAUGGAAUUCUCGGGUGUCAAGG | 0.397 |
| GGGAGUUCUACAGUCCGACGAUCUGUGCUACACAUCGUAUGUACCGAAUCGGGAAAAAAAGGGAAAAAAAGGGGAAAAAAAGGGGAAAGUAUUAUGUUACGCCGUUCGGAUCUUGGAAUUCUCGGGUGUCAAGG | -0.205 |
| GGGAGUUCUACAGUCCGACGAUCUUAGAUGAGGACCUUGAGAUUGAAUUGGUUGAGGAAGAGCCUCCAUUCCUGAGAGGGCACACUAAGCAAAGCAUGGACAUGAGCCCCAUUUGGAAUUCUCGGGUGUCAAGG | -0.482 |

Series 2 — method: RNA Bind-n-Seq; molecule type: RNA; sample: in vitro; concentration: 365 nM; relative to: no-protein control; reading: higher = stronger binding
Target: RNA binding protein fox-1 homolog 2, RRM domain, GST-SBP tag (RBFOX2, Homo sapiens, UniProt O43251-10, residues 100-194)
Notes: natural RNA segment, single round, ends assumed
Target sequence (chain): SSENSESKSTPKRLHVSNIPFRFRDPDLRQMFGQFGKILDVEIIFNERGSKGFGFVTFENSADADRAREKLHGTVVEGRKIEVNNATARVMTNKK
| Sequence | RBNS enrichment (R) |
| --- | --- |
| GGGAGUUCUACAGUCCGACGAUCUUUCUGGACAAACUCUUUAUGUGUUUUUCCCAAGAAUAGUUAUCUACUUCCUGGAGGCAAAAUCCUUGGAUUUACUAACAUGAUGAUUUACCUUUUCUUCACCGUUGUCGUGGAAUUCUCGGGUGCCAA | 0.245 |
| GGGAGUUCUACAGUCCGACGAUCGGGGAGGAGGAGCUGAGUCCUGACUCUGUGCUCCUGUUAGGCAGGGCCUCUGGGAAGAGGAGAAAUGUAGCCUGAGCUGGGGCUGGAGGCUGGUCACCGCAUAUCCUUGCUGGAAUUCUCGGGUGCCAA | 0.699 |
| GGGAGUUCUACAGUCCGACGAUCAAUUUUUAUUUCAGCUUUAAAGAUGGGUCAUAUAGCCAAACGGGCCAUAUAAUCCAACAUUGUUGAGAUGUCUUAGGACAUCUAAGGCAAAACUGGCACAUUUGUUCUGCUGGAAUUCUCGGGUGCCAA | 0.247 |
| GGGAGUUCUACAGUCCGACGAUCAUCUUCUUUGACCCUUAUGACUGAAAGAUCAUCAGUUUGGAAGGUACUGGUCCAAUUUAUUUAGGAAGUAUCUCUUGGAGUUUCAGAAAUGCUAGCUUGGACAACUGAAAUGGAAUUCUCGGGUGCCAA | 0.949 |
| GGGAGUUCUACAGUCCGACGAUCACCAAUGGAAAACGGGGUUGGCCGUGGGAGAUGGGAUGAAGCGUUUACGUGAUUUUGGCGCACCCUGUAUACAUUUCAGAACUCCUGAUGGUAACGUGUCUGGAGUGUGGUGGAAUUCUCGGGUGCCAA | 0.507 |
| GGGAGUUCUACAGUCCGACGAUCUAAUUUAUUCCCUGACAUUGCUGGUGACACUGGGAAGGGAACAAGCCACAGGGAUGAGGUGAAGCCAUCUCUGUCCUUCCUGGAAUACCGGAGAUCCAGGGGCCUCCAGCUGGAAUUCUCGGGUGCCAA | 0.498 |
| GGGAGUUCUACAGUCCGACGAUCGCUCUCUCAGAGGCGCCAGCCCCUCCCUCCCCAGCCGGAGGCGUCAUCUCUCUUCUGUACCACUAGAGGGAGCUCUGAUGCAGCUGGAGAGCAGCGCUCAAGGCUCUCGCUGGAAUUCUCGGGUGCCAA | 0.284 |
| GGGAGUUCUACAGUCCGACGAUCUUCCUGUUACCUCAUCUUCUUUUUUAAAGUACACCUGACUUGGGAGGGUACUGUCUCUAAUGUAUAUUUCUAGUGUUUACAGACACUAAGUGUGUAUAUGUAGUAACUAUUGGAAUUCUCGGGUGCCAA | 0.426 |

Series 3 — target: CCND1, cyclin fold, Cln2 fusion (human); method: yeast growth competition, sequencing; sample: yeast; notes: weak parent motif; relative to: not given; reading: higher = stronger binding
Starting sequence: MICAL3 docking peptide (human); LQLRRQLSFSEDS; partner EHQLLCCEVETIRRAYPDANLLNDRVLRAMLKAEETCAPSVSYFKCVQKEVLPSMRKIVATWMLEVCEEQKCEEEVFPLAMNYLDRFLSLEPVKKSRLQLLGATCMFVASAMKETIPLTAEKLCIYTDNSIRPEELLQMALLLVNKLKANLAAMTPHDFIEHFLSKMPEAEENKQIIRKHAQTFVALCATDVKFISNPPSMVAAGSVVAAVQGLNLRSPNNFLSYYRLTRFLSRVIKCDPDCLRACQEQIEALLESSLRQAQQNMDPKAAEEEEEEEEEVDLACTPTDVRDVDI
| Change | normalised enrichment score |
| --- | --- |
| LQLRRYLSFSEDS [Q6Y] | 0.0552 |
| LQLMRQLSFSEDS [R4M] | 0.234 |
| LQLKRQLSFSEDS [R4K] | 0.578 |
| LQLRRQLSFSKDS [E11K] | 0.268 |
| LQLRRQPSFSEDS [L7P] | 0.204 |
| LQLHRQLSFSEDS [R4H] | 0.13 |
| LQLRRQWSFSEDS [L7W] | 0.193 |
| LQLRRQLGFSEDS [S8G] | -0.294 |
| LQFRRQLSFSEDS [L3F] | 0.169 |
| LDLRRQLSFSEDS [Q2D] | 0.677 |
| LQLRRQLSFVEDS [S10V] | -0.0396 |
| LQLRRQLSFSEHS [D12H] | 0.233 |
| LQLRRQCSFSEDS [L7C] | 0.0139 |
| LVLRRQLSFSEDS [Q2V] | 0.586 |
| LQLRYQLSFSEDS [R5Y] | 0.0798 |
| LQLRRQLSFSDDS [E11D] | 0.706 |
| LQLRRQLSFSETS [D12T] | 0.329 |
| LQLRRQLSCSEDS [F9C] | -0.0048 |
| LQLRRQESFSEDS [L7E] | 0.276 |
| LQLRRQLSFSEPS [D12P] | 0.394 |
| LQLRRQLSFAEDS [S10A] | -0.115 |
| LQLRRQLSTSEDS [F9T] | -0.0196 |
| LQLCRQLSFSEDS [R4C] | 1.33 |
| LQLRRALSFSEDS [Q6A] | 0.506 |
| LQLRRQLSFREDS [S10R] | -0.0018 |

Series 4 — target: HLF, bZIP domain (human); method: DHFR protein complementation; sample: yeast; relative to: wild-type JUN-FOS pair; reading: higher = stronger binding
Notes: single substitutions, most at no-binding floor
Starting sequence: JUN, bZIP domain (human); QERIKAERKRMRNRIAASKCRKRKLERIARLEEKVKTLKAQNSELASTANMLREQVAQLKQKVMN; partner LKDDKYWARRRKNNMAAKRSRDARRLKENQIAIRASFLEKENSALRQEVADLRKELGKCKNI
| Change | binding fitness [natural log] |
| --- | --- |
| Q55K | -1.47 |
| E54I | -1.57 |
| I28V | -1.5 |
| R30Y | -1.48 |
| Q41V | -1.38 |
| A40K | -1.34 |
| L45Y | -1.53 |
| K39G | -1.43 |
| R53K | -1.46 |
| V35P | -1.49 |
| A49N | -1.46 |
| E44R | -1.4 |
| L52Q | -1.49 |
| Q41L | -1.33 |
| L38F | -1.53 |

Repeated from above (series 1):
| Sequence | log2 enrichment |
| --- | --- |
| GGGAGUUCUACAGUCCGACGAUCUGUGCUACACAUCGUAUGUACCGAAUCGGGAAAAAAAGGGAAAAAAAGGGGAAAAAAAGGGGAAAGUAUUAUGUUACGCCGUUCGGAUCUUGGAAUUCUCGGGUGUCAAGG | -0.205 |
| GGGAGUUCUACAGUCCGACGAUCCAAGUCCUGUGCUACACAUCGUAUGUACCGAAUCGGAAAGGGGAAAGGGGAAAGGAAAGUAUUAUGUUACGCCGUUCGGAUCUGCACUUCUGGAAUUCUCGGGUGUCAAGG | -0.178 |
| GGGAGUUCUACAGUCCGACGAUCUGGGAGGUGGAUUUUGUUUAUUUUUUUAGCUCAUUUCCAGGGGUGGGUAUUUUUUUUUAAUAUGUGUCAUGAAUAAAGUUGUUUUUGAAAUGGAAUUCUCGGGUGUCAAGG | 0.397 |
| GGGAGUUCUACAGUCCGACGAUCUGUGUUGUGCUCAUUACCAGUGCAGCGACUGCCGUCCCAGGGUGACUCUGAGUUGUCCUUUAUCGUGAGCUAGCAAUGGCUAGCGAAGACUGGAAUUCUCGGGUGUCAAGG | -1.66 |
| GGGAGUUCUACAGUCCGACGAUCAAGUCCUGUGCUACACAUCGUAUGUACCGAAUCGGGAAAAGGGAAAAGGGAAAAGGAAAGUAUUAUGUUACGCCGUUCGGAUCUGCACUUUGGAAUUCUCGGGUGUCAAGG | -0.564 |
| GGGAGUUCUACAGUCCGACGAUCAAGUCCUGUGCUACACAUCGUAUGUACCGAAUCAAAUUUUUAAACCCAAACCCAAAAAAGUAUUAUGUUACGCCGUUCGGAUCUGCACUUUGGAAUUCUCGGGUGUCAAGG | -0.266 |
| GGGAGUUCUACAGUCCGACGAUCUUAGAUGAGGACCUUGAGAUUGAAUUGGUUGAGGAAGAGCCUCCAUUCCUGAGAGGGCACACUAAGCAAAGCAUGGACAUGAGCCCCAUUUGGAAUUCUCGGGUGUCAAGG | -0.482 |
| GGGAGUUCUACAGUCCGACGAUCUAACUUUAGAUGAGGAUCUGAUGGAUAUGGCAGUGGACGUGGAUUUGGGGAUGGCUAUAAUGGGUAUGGAGGAGGACCUGGAGGUGGCAAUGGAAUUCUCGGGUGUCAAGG | 0.204 |
| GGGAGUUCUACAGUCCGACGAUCCUCAAGUCCUGUGCUACACAUCGUAUGUACCGAAUCGGAGGUGGAAAAAAAGGAAAGUAUUAUGUUACGCCGUUCGGAUCUGCACUUCCAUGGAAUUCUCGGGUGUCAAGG | -0.515 |
